Results pooled from the literature.
Each line is one published result; not all experiments were run side by side.
Target: Muscarinic acetylcholine receptor M1 (CHRM1, Homo sapiens, UniProt P11229)
Sequence (P11229 1-460, as in one of the studies): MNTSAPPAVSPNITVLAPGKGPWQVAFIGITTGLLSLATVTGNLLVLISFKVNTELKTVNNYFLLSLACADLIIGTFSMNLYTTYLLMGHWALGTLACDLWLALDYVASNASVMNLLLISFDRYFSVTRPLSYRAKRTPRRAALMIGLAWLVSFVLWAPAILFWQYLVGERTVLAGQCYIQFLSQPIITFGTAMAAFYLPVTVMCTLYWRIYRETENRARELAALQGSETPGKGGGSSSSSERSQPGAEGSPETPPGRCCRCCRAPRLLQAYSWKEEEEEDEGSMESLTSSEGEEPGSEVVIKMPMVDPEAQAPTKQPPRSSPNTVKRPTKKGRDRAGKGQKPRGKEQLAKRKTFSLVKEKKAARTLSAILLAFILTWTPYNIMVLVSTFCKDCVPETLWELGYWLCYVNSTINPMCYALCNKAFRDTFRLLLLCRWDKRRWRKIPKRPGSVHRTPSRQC

| test | test system | conditions | scale | endpoint | value | Compound |
| --- | --- | --- | --- | --- | --- | --- |
| calcium mobilization, positive allosteric modulator | CHO-K1 cells | 30 µM, added: submaximal acetylcholine |  | maximal ACh response | 40% | Cc1ccc(C)c(Cn2nc3c4ccccc4n(Cc4ccccc4)cc-3c2=O)c1 |
| binding |  | 10 µM |  | inhibition | -9.44% | CN(C(=O)n1cnc(-c2ccc[n+]([O-])c2)c1)C1CCCCC1 |
| agonist response, antagonist | human cells | 10 µM, M1 antagonist |  | inhibition | 65% | COc1cc(Cl)c(C(=O)N[C@@H](CN[C@H]2CC[C@@H](N)CC2)Cc2ccc(C#N)cc2)cc1-c1ccc(CN[C@H](C)c2ccc(C)cc2)o1 |
| PDSP screening |  |  |  | off-target affinity | inactive | CCCC(CCC)c1nc2c(Nc3ccc(C#CCCCCCCCCN)cc3)nc3ccccc3c2[nH]1 |
| cell-based |  | 10 µM | reference: control | response | > 50% | CN1CCC(CNc2ccc3ncc(-c4cccc(OC(F)(F)F)c4)n3n2)CC1 |
| radioligand binding, radioligand displacement |  | 10 µM, mean of replicates |  | inhibition | 24.3% | O=C(NO)c1ccc(CN2CCCCc3ccccc32)c(F)c1 |
| radioligand binding, PDSP competition binding |  | 10 µM |  | inhibition | < 50% | OCCCN1CC[C@@H]2C[C@H]1c1cc(-c3ccc(C(F)(F)F)cc3)ccc12 |
| calcium mobilization, positive allosteric modulator | CHO-K1 cells | 30 µM, added: submaximal acetylcholine |  | maximal ACh response | 80% | Cc1ccc(Cn2nc3c4ccccc4n(Cc4ccc(-n5cccn5)cc4)cc-3c2=O)c(C)c1 |
|  |  | 10 µM |  | inhibition | 0% | CCN1/C(=C/C(C)=O)Sc2ccc(F)cc21 |

Excerpt of the above:
| test | test system | conditions | scale | endpoint | value | Compound |
| --- | --- | --- | --- | --- | --- | --- |
| cell-based |  | 10 µM | reference: control | response | > 50% | CN1CCC(CNc2ccc3ncc(-c4cccc(OC(F)(F)F)c4)n3n2)CC1 |
